Experimental data of several laboratories.
Each line is one published result; not all experiments were run side by side.

| Structure (SMILES) | assay | system | conditions | quantity | result |
| --- | --- | --- | --- | --- | --- |
| C=CC(=O)Nc1cc(Nc2nccc(Nc3cc(Cl)c(F)cc3C(C)(C)O)n2)c(OC)cc1N1CC[C@@H](N(C)C)C1 |  | human patients | oral, 300 mg, treatment-emergent adverse events | patients with mouth ulceration | 21.6% |
| CN[C@@H](C)C(=O)N[C@H]1CN(S(=O)(=O)c2cccc(S(=O)(=O)N3CC[C@H]4CC[C@@H](C(=O)NC(c5ccccc5)c5ccccc5)N4C(=O)[C@@H](NC(=O)[C@H](C)NC)C3)c2)CC[C@H]2CC[C@@H](C(=O)NC(c3ccccc3)c3ccccc3)N2C1=O |  | human, advanced solid tumours | 45 mg | patients with treatment-related asthenia | 20% |
| C=CCNc1c(O)cc2c(O)c1C[C@@H](C)C[C@H](OC)[C@H](O)[C@@H](C)/C=C(\C)[C@H](OC(N)=O)[C@@H](OC)/C=C\C=C(/C)C(=O)N2 |  | human unresectable metastatic GIST or sarcoma | intravenous, dose not given | patients with dosing interruptions | 44% |
| O=C(c1ccc(F)c(F)c1Nc1ccc(I)cc1F)N1CC(O)([C@@H]2CCCCN2)C1 |  | human patients | oral, 1 mg/kg, patients aged at least sample B years | patients with treatment-related SAE | 100% |
| COc1ncnn2ccc(-c3cnc4nc(C)n(Cc5nnc([C@@H](C)F)o5)c4c3)c12 |  | human | oral, dose not given, grade 3 | patients with amylase increased | 7.1% |
| Cn1cncc1-c1c(F)cncc1NC(=O)c1c(N)nn2cc(F)cnc12 |  | human patients | oral, up to 40 mg once daily | patients grade ≥3 Lymphocyte count decrease | 0% |
| CCN(CCO)CCCC(C)Nc1ccnc2cc(Cl)ccc12 (centres unmarked) |  | human, newly diagnosed glioblastoma | oral, 400 mg/dose, platelet decrease grade 1, with RT and TMZ | patients with adverse event | 29% |
| C[C@]1(O)C[C@@](N)(c2ccc(-c3nc4n(c3-c3ccccc3)COc3ccncc3-4)cc2)C1 |  | human, advanced or metastatic solid tumours | 16 mg once daily, phase I dose escalation | patients with AST increased | 0% |
| CCN1[C@@H](C(=O)NC23CCC(C(=O)O)(CC2)CC3)[C@H](c2cccc(Cl)c2F)[C@]2(C(=O)Nc3cc(Cl)ccc32)C12CCCCC2 | measured: any-grade treatment-related nausea or vomiting | human, advanced solid tumours | oral, dose not given, phase I, all patients | patients with adverse event | 57.1% |
| CN(C)C(=O)c1cc2cnc(Nc3ccc(N4CCNCC4)cn3)nc2n1C1CCCC1 | measured: interstitial lung disease or pneumonitis | human, HR+/HER2− advanced breast cancer | oral, dose not given, grade 4, CTCAE v4.03 | patients with adverse event | 0% |
| COc1c(C)cnc(Cn2cc(C#CCCOP(=O)(O)O)c3c(Cl)nc(N)nc32)c1C | measured: fatigue | human, advanced solid tumours | concentration not given, at least possibly drug-related | patients with adverse event | 46% |
| C[C@@H]1OC(=O)NN=C1c1ccc(-c2ccc(F)cc2)c(C(F)(F)F)c1 | phase I trial, measured: Diarrhoea worst grade 1 | human patients | 20 mg loading then 1 mg daily | patients with adverse event | 0% |
| NC(=O)[C@H]1CCN(c2ncnc(N)c2F)C[C@@H]1N1CCC[C@@H](Nc2cc(Cl)cc(C(F)(F)F)c2)C1=O |  | human patients | oral, dose not given, grade ≥3 | patients with leukocytosis | 5% |
| CCN(Cc1nc2c(N)nc3cc(-c4cc[nH]n4)ccc3c2[nH]1)C(C)=O |  | human patients | intratumoral, dose not given | patients with treatment-related adverse event | 91.7% |
| Cn1nc(NS(C)(=O)=O)c2c(Cl)ccc(-n3c([C@H](Cc4cc(F)cc(F)c4)NC(=O)Cn4nc(C(F)F)c5c4C(F)(F)[C@@H]4C[C@H]54)nc4nc(OCCC(F)(F)F)ccc4c3=O)c21 | measured: total cholesterol grade 2 increase | human | 300 mg once daily, powder in bottle | patients with laboratory abnormality | 13% |
| Cn1ncc(-c2nc(N[C@H]3CC[C@H](N)CC3)ncc2Cl)c1CC1CC1 | measured: treatment-related Hypoxia grade 3 or higher | human patients phase I | dose not given | patients with adverse events | 3.2% |
| CCS(=O)(=O)Nc1ccc(Oc2ccc(F)cc2F)c(-c2cn(C)c(=O)c3[nH]ccc23)c1 | measured: Dehydration | human, relapsed/refractory AML | oral, dose not given, trial, with: alone or with venetoclax | patients with serious adverse event | 5% |
| O=C1Nc2cc3[nH]nc(-c4ccncc4)c3cc2CN1Cc1ccccc1 | CTCAE v4.03 | human, relapsed or refractory advanced solid tumours | intravenous, 4.8 mg/kg | patients with photopsia | 0% |
| Cc1cn([C@H]2O[C@@H](CO[P@@](=O)(N[C@@H](C)C(=O)OC(C)C)Oc3ccccc3)[C@H](O)[C@H]2F)c(=O)[nH]c1=O | measured: grade 1/2 | human | 10 mg | patients with decreased platelets | 0% |
| COc1ccc(-c2c(-c3ccc(C#N)c(F)c3)nc(N3CCC(N)CC3)n(C)c2=O)cc1F | measured: general health deterioration | human patients | oral, 60 mg, dose expansion | patients with serious TEAE | 5% |

For quick reference, copied from above:
| Structure (SMILES) | assay | system | conditions | quantity | result |
| --- | --- | --- | --- | --- | --- |
| Cn1ncc(-c2nc(N[C@H]3CC[C@H](N)CC3)ncc2Cl)c1CC1CC1 | measured: treatment-related Hypoxia grade 3 or higher | human patients phase I | dose not given | patients with adverse events | 3.2% |
| CCS(=O)(=O)Nc1ccc(Oc2ccc(F)cc2F)c(-c2cn(C)c(=O)c3[nH]ccc23)c1 | measured: Dehydration | human, relapsed/refractory AML | oral, dose not given, trial, with: alone or with venetoclax | patients with serious adverse event | 5% |
| O=C1Nc2cc3[nH]nc(-c4ccncc4)c3cc2CN1Cc1ccccc1 | CTCAE v4.03 | human, relapsed or refractory advanced solid tumours | intravenous, 4.8 mg/kg | patients with photopsia | 0% |
